Assay results of several laboratories.
Every numbered part comes from another study and shows a few of its results, in no order.

Series 1
Target: Interferon regulatory factor 7, full length, phosphomimetic (IRF7, Homo sapiens, UniProt Q92985, residues 1-503, S471D/S472D/S475D/S476D/S477D/S483D/S484D/S487D)
Method: protein-binding microarray
Molecule type: double-stranded DNA, one strand shown
Medium: in vitro
Concentration: 2200 nM top
Setting: 60-bp whole probe
With: salmon DNA 0.4 mg/ml
Baseline: random background probes
Reading: higher = stronger binding
Shared flanks, not repeated: GCCTAGCAC … GTCTTGATTCGCTTGACGCTGCTG
Target sequence (chain): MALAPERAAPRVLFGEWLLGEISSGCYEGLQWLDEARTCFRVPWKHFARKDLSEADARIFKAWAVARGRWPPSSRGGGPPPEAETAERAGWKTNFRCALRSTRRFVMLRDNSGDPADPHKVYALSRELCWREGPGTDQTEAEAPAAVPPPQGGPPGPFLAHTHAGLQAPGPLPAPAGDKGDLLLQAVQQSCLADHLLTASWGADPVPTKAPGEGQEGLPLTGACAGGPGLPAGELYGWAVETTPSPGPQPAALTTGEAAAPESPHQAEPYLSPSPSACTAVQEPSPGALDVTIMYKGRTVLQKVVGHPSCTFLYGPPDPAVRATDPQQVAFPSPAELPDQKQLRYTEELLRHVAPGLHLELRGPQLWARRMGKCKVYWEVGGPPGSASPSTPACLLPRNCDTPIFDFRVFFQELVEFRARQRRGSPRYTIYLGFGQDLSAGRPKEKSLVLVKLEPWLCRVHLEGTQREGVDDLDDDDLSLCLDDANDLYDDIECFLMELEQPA
Oligonucleotide | fitted relative affinity [z-score]
CTCTCTTTCCACTTGTCTTTGTGCTAG | 5.01
GACGGTATCGGGTACCGGGACGTGCTA | -0.179
GACGGTCTCCTCCTGCTGACGTGCTAG | 0.855
CACGGACTGGACTATCGGGACGTGCTA | -0.898
GACGGTTTCGACTATTGGGACGTGCTA | 3.05
TTAGGTATCCTTCTCCTTTCGTGCTAG | 1.78

Series 2
Target: Histone acetyltransferase KAT6A, winged helix 1, GST fusion (KAT6A, Homo sapiens, UniProt Q92794, residues 1-85)
Method: protein binding microarray
Molecule type: double-stranded DNA, one strand shown
Medium: in vitro
Concentration: not given
Setting: 8-mer, flanks averaged, mean of 2 arrays, mostly near background
Baseline: not given
Reading: higher = stronger binding
Construct (chain): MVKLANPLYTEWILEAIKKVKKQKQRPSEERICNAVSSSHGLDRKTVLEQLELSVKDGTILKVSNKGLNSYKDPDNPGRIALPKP
Oligonucleotide | E-score
AGGGGACC | -0.0231
CCAAGGCG | 0.259
ACTTCCCC | -0.134
TCCTACAA | -0.208
ACCGACTA | 0.119
CCCGAAGC | 0.0156
GGTTGGAC | -0.0417
AGAGCACT | -0.22

Series 3
Target: Sal-like protein 4, full length isoform A (SALL4, Homo sapiens, UniProt Q9UJQ4, residues 1-1053)
Sequence of UniProt Q9UJQ4 (whole entry, looked up): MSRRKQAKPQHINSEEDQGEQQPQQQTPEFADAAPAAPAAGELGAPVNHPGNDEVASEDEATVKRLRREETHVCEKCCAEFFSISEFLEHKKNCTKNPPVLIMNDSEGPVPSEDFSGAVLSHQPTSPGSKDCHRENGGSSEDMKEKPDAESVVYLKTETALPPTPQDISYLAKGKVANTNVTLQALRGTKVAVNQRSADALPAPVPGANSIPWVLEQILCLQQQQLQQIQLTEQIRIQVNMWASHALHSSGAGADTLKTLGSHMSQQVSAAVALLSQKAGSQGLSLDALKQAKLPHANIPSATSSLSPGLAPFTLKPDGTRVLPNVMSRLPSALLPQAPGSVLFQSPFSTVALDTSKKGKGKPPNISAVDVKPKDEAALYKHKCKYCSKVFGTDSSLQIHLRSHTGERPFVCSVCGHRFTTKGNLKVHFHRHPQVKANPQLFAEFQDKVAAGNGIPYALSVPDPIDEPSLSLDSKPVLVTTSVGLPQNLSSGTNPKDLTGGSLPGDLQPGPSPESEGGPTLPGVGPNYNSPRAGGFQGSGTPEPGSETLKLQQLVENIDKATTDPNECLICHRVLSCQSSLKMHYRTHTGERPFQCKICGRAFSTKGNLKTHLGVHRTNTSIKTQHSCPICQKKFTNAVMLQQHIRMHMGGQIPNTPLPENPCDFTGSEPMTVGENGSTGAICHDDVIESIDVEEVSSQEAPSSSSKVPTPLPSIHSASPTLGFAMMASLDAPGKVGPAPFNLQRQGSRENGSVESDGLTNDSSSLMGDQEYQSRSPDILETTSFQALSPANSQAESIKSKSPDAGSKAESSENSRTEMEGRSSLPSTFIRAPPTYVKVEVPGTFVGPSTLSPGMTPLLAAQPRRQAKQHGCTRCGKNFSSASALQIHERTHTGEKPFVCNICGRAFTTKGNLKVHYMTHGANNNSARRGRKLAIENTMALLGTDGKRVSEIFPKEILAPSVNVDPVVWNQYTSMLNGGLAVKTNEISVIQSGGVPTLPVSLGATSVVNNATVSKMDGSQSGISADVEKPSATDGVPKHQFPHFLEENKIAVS
Method: universal PBM
Molecule type: double-stranded DNA, one strand shown
Medium: in vitro
Concentration: 600 nM
Setting: 8-mer, flanks averaged, mean of replicates
Reading: higher = stronger binding
Oligonucleotide | E-score
ATTCGAAG | 0.0612
AGCACGAG | 0.0265
CGATGCTC | -0.259
CTATCAAA | 0.131
ACGACCGT | -0.272
CAGACCTC | -0.237
GGGCCCGA | -0.255

Further values, each from its own experiment
Substance | target | assay | system | conditions | scale | endpoint | result
PhoQ, residues 284 288 289 292 302 303 GASLAW | PhoP, residues 12 14 15 18 19 SEGLL (Escherichia coli, UniProt P23836) | Sort-seq, refers to: YFP reporter | E. coli | PhoQ-PhoP variant library, with: 10 µM Mg2+ | baseline: high Mg2+ state, higher = stronger signaling | fold induction | 4.23

Excerpt of the above (series 3):
Oligonucleotide | E-score
AGCACGAG | 0.0265
GGGCCCGA | -0.255
CTATCAAA | 0.131
